Assay results from different studies.
Every numbered part comes from another study and shows a few of its results, in no order.

Study 1 — technique: universal PBM; form: double-stranded DNA, one strand shown; matrix: in vitro; tested at: not given; reading: higher = stronger binding
Target: Sal-like protein 4, full length isoform B (SALL4, Homo sapiens, UniProt Q9UJQ4-2, residues 1-616)
Notes: 8-mer, flanks averaged, mean of replicates
Construct (chain): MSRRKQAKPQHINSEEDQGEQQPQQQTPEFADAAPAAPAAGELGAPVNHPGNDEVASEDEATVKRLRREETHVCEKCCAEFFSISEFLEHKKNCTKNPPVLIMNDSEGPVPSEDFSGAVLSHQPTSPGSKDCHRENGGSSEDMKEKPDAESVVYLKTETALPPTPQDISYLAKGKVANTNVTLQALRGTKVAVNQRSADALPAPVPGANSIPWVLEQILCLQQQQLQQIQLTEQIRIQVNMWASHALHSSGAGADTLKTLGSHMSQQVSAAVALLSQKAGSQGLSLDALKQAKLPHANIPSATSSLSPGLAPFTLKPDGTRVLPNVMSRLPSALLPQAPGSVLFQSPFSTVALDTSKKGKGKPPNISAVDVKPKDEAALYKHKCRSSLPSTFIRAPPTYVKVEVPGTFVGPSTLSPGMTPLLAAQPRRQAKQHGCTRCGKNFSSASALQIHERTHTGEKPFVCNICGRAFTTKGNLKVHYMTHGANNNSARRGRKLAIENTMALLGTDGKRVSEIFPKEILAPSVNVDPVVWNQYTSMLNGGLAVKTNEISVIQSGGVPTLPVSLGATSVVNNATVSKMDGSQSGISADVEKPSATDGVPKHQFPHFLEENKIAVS
| Sequence | E-score |
| --- | --- |
| GCACCTTA | 0.00723 |
| AGGGTGAT | -0.0178 |
| CACAGGCC | -0.126 |
| GAATGTAC | 0.0466 |
| TCTTGAAA | 0.266 |
| GAAAATTC | 0.135 |
| AGAGCCGA | -0.136 |
| TAATTAGA | 0.266 |
| GCAGGTAA | 0.096 |
| CACCCAAA | -0.0798 |
| AGTCTGTG | -0.0638 |
| AACGAACT | 0.0243 |
| AATTTTGC | 0.28 |
| ACCATCGA | 0.0255 |
| ACGCTGGG | -0.345 |
| GGATGGTA | 0.151 |
| GCAAATAC | 0.178 |
| ATCAAGGG | 0.0597 |
| AGTGTTAG | 0.0376 |
| CGGTCACC | -0.331 |
| AGAGCACA | -0.175 |

Study 2 — technique: RNA Bind-n-Seq; form: RNA; matrix: in vitro; tested at: 365 nM; reference: no-protein control; reading: higher = stronger binding
Target: RNA binding protein fox-1 homolog 2, RRM domain, GST-SBP tag (RBFOX2, Homo sapiens, UniProt O43251-10, residues 100-194)
Notes: natural RNA segment, single round, ends assumed
Target sequence (chain): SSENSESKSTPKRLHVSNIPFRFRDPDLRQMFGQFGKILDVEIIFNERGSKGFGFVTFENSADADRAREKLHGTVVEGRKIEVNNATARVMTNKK
| Sequence | RBNS enrichment (R) |
| --- | --- |
| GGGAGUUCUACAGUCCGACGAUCUUCCCUCCAACAGGAACUCUCUGACCUGUUUAUUCAGGUGUAUUUCUGGUUUGGAUUUUUUUUUCCUUCUUUGUUUUAACAAAUGGAUCCAGGAUGGAUAAAUCCACCGAUGGAAUUCUCGGGUGCCAA | 0.316 |
| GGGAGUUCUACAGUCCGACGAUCGAUAAGCUCUGCUGGAUCCAAGGGAUCCAGGCUAAGGGCGUUCAGUCUGCUGCAAACCAGUCUGGCCAGCACAGCAACCGCCCAUUGAGGACUUUCUUAAAGCUACUGGGUGGAAUUCUCGGGUGCCAA | 0.242 |
| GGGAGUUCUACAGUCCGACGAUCCACCCUGGUAGAUUAGCCAGCUGUCAGACUCACUUUUAUUUCAAUCCUUACACUUCAUAAACUUUUGUCUCCACGUUGUUACCAUAUUUGGAGACAGAAACAGGAGUUUCUGGAAUUCUCGGGUGCCAA | 0.219 |
| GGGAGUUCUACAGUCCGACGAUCCCUGAGAGUCGAAUUCUUCUCUUCCCUAACCAAUGAAGCUAAGUGGUUAUCCCAGAAACUUGUCUUCUAAAAGGGAGGACUCCAGGCCAUCAAUAAAGAUGUCCAGGCAGUGGAAUUCUCGGGUGCCAA | 0.232 |
| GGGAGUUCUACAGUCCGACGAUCAAGACACACAGCAGCAAUGACCCCUCUCUAGGCCUGUCGCCUCCCUCCGCCUCCCGACCAGAGGGGUCCCUCAUGCCUGGCUGGCAGCCUCCUGGCAAGUGAGAAAGCCCUGGAAUUCUCGGGUGCCAA | 0.412 |
| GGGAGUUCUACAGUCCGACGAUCCUGUUUAAUUUUAAUUCAGUUGUUAAUGUGUCUUAGUGUGUGCAUUAUUUUCUUACUAUUAACCCAUGGUUUGCAGGCUCUGUUCAACCCUUUUCCUUCUUCCUAUCCCCUGGAAUUCUCGGGUGCCAA | 0.462 |
| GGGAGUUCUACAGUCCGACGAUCCACAGUGGGGAGUCAAUGUCCAGCCCUACUCCGGGUCCCCAGCCAACCUGGCCGUCUACACAGCCCUUCUGCAACCUCACGACCGGAUCAUGGGGCUGGACCUGCCCGAUUGGAAUUCUCGGGUGCCAA | 0.477 |
| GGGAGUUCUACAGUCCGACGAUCUUAAAAGUCUACUCAGCUCUAGAUUAGAUACCAGAAGACCCUCUAAGUAACUGAUAACUGAGAUUCGGGACCAUGUCUUGUUUGCCAUUGUGCCCUUGGAAUUUAAUACAUGGAAUUCUCGGGUGCCAA | 0.316 |
| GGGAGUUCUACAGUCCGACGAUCGACACAAAAAUUCACAUGGAAAUGGGGAAGAUGGUCUGUUUUGACAGAAACUGACAGGAAUCAAUCAAAACAAUCGAAUUUUGAAUUGAGUAAAGUGCAAUUUCAUUGGAUGGAAUUCUCGGGUGCCAA | 0.342 |
| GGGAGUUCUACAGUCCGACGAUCCGAAGCAUCCGCUUAGCAGCCUCUGCGUUGGAUCCUUGCACAGCCUUUUCCGGUGCCGUGGUUGGAGUGGGAGCCCACGCCUCGGGAGCUCUGGCCUUGCUCUUUCAAGUUGGAAUUCUCGGGUGCCAA | 0.324 |
| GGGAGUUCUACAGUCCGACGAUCUGGCACAGUGUGUCUGCUAGCUGCUUCCACACCCCUUAGCCAUGUUAUCUGUAGAGUACCGGAUAGUGUUUGCUUUUUCCUCCCAAGCUGACAGAAGCUGGGCAUCAGUGUGGAAUUCUCGGGUGCCAA | 0.688 |
| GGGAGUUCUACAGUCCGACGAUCCUCAUUCACUGUCCUGGCUUUUAUUUAAAGAAAAAAAAGGCAGUAUUCCCUUUUUAAAUGAGCUUUCAGGAAGUUGCUGAGAAAUGGGGUGGAAUAGGGAACUGUAAUGGUGGAAUUCUCGGGUGCCAA | 0.454 |

Study 3 — technique: protein binding microarray; form: double-stranded DNA, one strand shown; matrix: in vitro; tested at: not given; reference: not given; reading: higher = stronger binding
Target: Histone acetyltransferase KAT6A, both winged helices, GST fusion (KAT6A, Homo sapiens, UniProt Q92794, residues 1-181)
Notes: 8-mer, flanks averaged, mean of 2 arrays, mostly near background
Construct (chain): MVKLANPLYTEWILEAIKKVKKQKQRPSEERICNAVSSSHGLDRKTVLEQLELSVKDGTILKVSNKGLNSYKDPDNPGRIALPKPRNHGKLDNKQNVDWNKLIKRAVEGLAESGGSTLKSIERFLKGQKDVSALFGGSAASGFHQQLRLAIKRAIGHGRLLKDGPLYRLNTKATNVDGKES
| Sequence | E-score |
| --- | --- |
| CCTCACGA | -0.161 |
| GGCCGCGA | 0.306 |
| GCTTAACA | 0.115 |
| GTGCTAAC | 0.114 |
| AACTGCTC | 0.0323 |
| CACCGGCG | 0.252 |
| ACCGCCTG | 0.13 |
| GTTTCCGA | 0.206 |
| GATGGTAC | -0.062 |
| ACGTCTCT | -0.0517 |
| GGTCAACC | 0.000535 |
| ACTTAACG | 0.0166 |
| ACAAACAT | -0.111 |
| CCCGCCGG | 0.318 |
| ACATTAAT | -0.0333 |
| ACGGAGCC | 0.228 |
| ACAGCTAT | -0.159 |
| GGCAACGA | 0.0981 |
| CAGCTGGA | -0.18 |
| TATCAGGA | -0.0669 |
| GCAGTAGC | -0.0463 |
| GCACAACC | -0.0412 |
| CAGAAAAA | -0.216 |
| ATGCTGCC | -0.0487 |
| CAAACGTA | -0.147 |

Study 4 — technique: protein-binding microarray; form: double-stranded DNA, one strand shown; matrix: in vitro; tested at: 940 nM top; notes: 60-bp whole probe; together with: salmon DNA 0.4 mg/ml; reference: random background probes; reading: higher = stronger binding; all sequences stand within: GCCTAGCAC … GTCTTGATTCGCTTGACGCTGCTG
Target: Interferon regulatory factor 5, full length, phosphomimetic (IRF5, Homo sapiens, UniProt Q13568-2, residues 1-514, S451D/S453D/S456D/S462D)
| Sequence | fitted relative affinity |
| --- | --- |
| CAGTTAATGAAAATTCTAATTGTGCTA | -0.095 z-score |
| CTGAGATGCATTCTGGGCCCGTGCTAG | -0.557 z-score |
| TTAGGTTTCGGTCTCGGTCAGTGCTAG | 15.2 z-score |
| TTAGAACTGAGTGTCGATTAGTGCTAG | -0.327 z-score |
| TCATCTCTCAAAAGTCACACTGTGCTA | 0.919 z-score |
| TTAGGTTTCGGAATGGGTTAGTGCTAG | 8.63 z-score |
| TCACTTTCCAATTGTCCTACTGTGCTA | 1.37 z-score |
| TTAGATATCGGGTATCGTTTAGTGCTA | 1.68 z-score |
| GAAGATGTCAAACTCACTCAGTGCTAG | -0.557 z-score |
| TCAGGTTCCCATTCCAGACTGTGCTAG | 0.151 z-score |
| TTATGTATCGGGACTGGGTTAGTGCTA | 1.23 z-score |
| TGCTTTCTCTTTCACTGCTGGTGCTAG | 3.64 z-score |
| TCATCTCTGCTTCTGTAACTGTGCTAG | 1.12 z-score |
| GACGATATCAGCCTCGAGACGTGCTAG | -0.152 z-score |
| TTAGGTACCCTTTTCCTTTAGTGCTAG | 0.794 z-score |
| TTCTCCATGGGTATGGCCTAGTGCTAG | -0.268 z-score |
| TTAGGTTTCTTTTATTCAAAGTGCTAG | 3.84 z-score |
| TCAAAAGTCTTTTATGGTACTGTGCTA | -0.224 z-score |
| GACGGACTGGACACTGGGGAAGTGCTA | -0.428 z-score |
| TTAGGTCTCGGTCTAGGTTAGTGCTAG | 4.92 z-score |
| TTAGAACTTAGTTTCGATTAGTGCTAG | 9.17 z-score |
| TTAGGACAGCTTTTCCTTTAGTGCTAG | -0.647 z-score |
| GACAAACTGAGTCTCGAGACGTGCTAG | 0.882 z-score |
| GGCTCCTCCCCGCTTCTGGAGTGCTAG | -0.0951 z-score |
| TTAGGTCTCGGCCTGGGTTAGTGCTAG | 1.89 z-score |

Other studies, line by line
| Molecule | target | assay | test system | conditions | scale | quantity | value |
| --- | --- | --- | --- | --- | --- | --- | --- |
| PhoQ, residues 284 288 289 292 302 303 QWQEDG | PhoP, residues 12 14 15 18 19 LHSVW (Escherichia coli, UniProt P23836) | Sort-seq, item: YFP reporter | E. coli | PhoQ-PhoP variant library, together with: 10 µM Mg2+ | reference: high Mg2+ state, higher = stronger signaling | fold induction | 20.6 |

Repeated from above (study 3):
| Sequence | E-score |
| --- | --- |
| CAAACGTA | -0.147 |
| GCAGTAGC | -0.0463 |
| ACAGCTAT | -0.159 |
| CCTCACGA | -0.161 |
| TATCAGGA | -0.0669 |
| CAGCTGGA | -0.18 |
| ACATTAAT | -0.0333 |
| ACAAACAT | -0.111 |
| AACTGCTC | 0.0323 |
| CAGAAAAA | -0.216 |
| GTTTCCGA | 0.206 |
| GTGCTAAC | 0.114 |
